Measurements pooled from the literature.
Protocols differ between the studies behind these lines.
CDC25B: M-phase inducer phosphatase 2 (CDC25B, Homo sapiens, UniProt P30305)
gag-pol reverse transcriptase: Gag-Pol polyprotein, reverse transcriptase (gag-pol, Human immunodeficiency virus type 1 group M subtype B, UniProt P04585)

`N#Cc1c(F)c(F)c2nc(SCc3ccccc3)nc(N)c2c1F` gave an inhibition of 96.3% (CDC25B; enzyme activity, inhibitor, fluorescence; 20 µg/mL).
`COC(=O)Nc1ccc2c(c1)c(Cc1ccc(C(=O)NS(=O)(=O)c3ccc(C(F)(F)F)cc3)cc1OC)cn2C` gave an inhibition of 32 to 40% (Tumor necrosis factor receptor superfamily member 1A (Homo sapiens, UniProt P19438); NF-κB reporter gene, luciferase reporter; HEK293 cells; 0.5 µM, 24 h, with: TNF 10 ng/mL).
`COc1cc(C(=O)NC2CCC(N3CCN(CC4CCC5(CCCC5)C4)CC3)CC2)c(F)cc1Nc1ncc2c(n1)N(C1CCCC1(F)F)CC(F)(F)C(=O)N2C` (centres unmarked) gave an inhibition of 5.28% (Cyclin-dependent kinase 8 (CDK8, Homo sapiens, UniProt P49336); cell-free assay, TR-FRET; 10 µM).
For `CCOc1c(C(C)(C)O)sc2cnc(Nc3ccc(N4CCC(N5CC6(COC6)C5)CC4)cc3OC)nc12`, the inhibition was 70% (Calcium/calmodulin-dependent protein kinase type II subunit beta (CAMK2B, Homo sapiens, UniProt Q13554); enzyme activity, inhibitor; 0.1 µM).
`O=c1c(/C=N/NC(=S)N/N=C/c2ccccc2O)coc2ccccc12` has an inhibition of < 10% (potato tyrosinase; inhibitor; 50 µM, 0 to 20 min, with: L-DOPA; relative to: control).
For `CCCCSc1nc(N)c2c(F)c(F)c(C#N)c(F)c2n1`, the inhibition was 96.6% (CDC25B; enzyme activity, inhibitor, fluorescence; 20 µg/mL).
For `Cc1cc(/C=C/C#N)cc(C)c1Oc1cc(Nc2ccc(C#N)cn2)nc2ccncc12`, the inhibition was 84.9% (gag-pol reverse transcriptase; enzyme activity, inhibitor, ELISA; 1 µM).
For `CC(C)(C)CCN1C[C@@H]2[C@@H](CNC(=O)c3cc(Cl)cc(Cl)c3)[C@@H]2C1.Cl`, the inhibition was ~64% (Voltage-dependent T-type calcium channel subunit alpha-1H (CACNA1H, Homo sapiens, UniProt O95180); peak calcium current, whole-cell patch clamp; HEK-293T transfected; 0.1 µM).
With `Oc1ccc([C@H]2Oc3cc(O)cc(O)c3C[C@H]2O)cc1` the inhibition was 31.5% (Sucrase-isomaltase, intestinal (Si, Rattus norvegicus, UniProt P23739); enzyme activity, inhibitor; rat intestinal brush border vesicles; 10 µM).
The inhibition of `[2H]C([2H])([2H])c1ccnc2c1NC(=O)c1cccnc1N2C1CC1` is reported as > 85% (gag-pol reverse transcriptase; enzyme activity, inhibitor, ELISA; 10 µM).
The inhibition of `Cc1ccc(NC(=O)c2cccc(S(=O)(=O)N3CCOCC3)c2)c(C)c1` is reported as 26% (Ectonucleoside triphosphate diphosphohydrolase 1 (Homo sapiens, UniProt P49961); enzyme activity, inhibitor, absorbance; 100 µM).
`CC(C)(C)OC(=O)NCc1cn([C@H]2O[C@H](CO)[C@@H](O)[C@H](O)[C@H]2O)nn1` has an inhibition of 52% (Lysosomal alpha-glucosidase (GAA, Homo sapiens, UniProt P10253); enzyme activity, inhibitor, fluorescence; 1.43 mM, pH 4, lysate).
The inhibition of `N#Cc1c(F)c(F)c2nc(SCc3ccc4ccccc4c3)nc(N)c2c1F` is reported as 99.4% (CDC25B; enzyme activity, inhibitor, fluorescence; 20 µg/mL).
The inhibition of `O=C1N[C@@H](CO)C[C@H](O)c2ccccc21` (relative stereo) is reported as 0% (Protein mono-ADP-ribosyltransferase PARP3 (PARP3, Homo sapiens, UniProt Q9Y6F1); enzyme activity, inhibitor; 10 µM).
With `O=C(CSc1nc2ccccc2[nH]1)N/N=C/c1cc2c(s1)CCCC2` the inhibition was 13% (1-deoxy-D-xylulose-5-phosphate synthase (dxs, Deinococcus radiodurans, UniProt Q9RUB5); enzyme activity, inhibitor; 120 µM).
Under inhibition, `O=C(CS(=O)(=O)Cc1ccco1)C12CC3CC(CC(C3)C1)C2` is recorded as “inactive” (11-beta-hydroxysteroid dehydrogenase type 2 (HSD11B2, Homo sapiens, UniProt P80365); cells; 10 µM).
`CCNC(=O)Nc1ccc(OCCCCCCCOc2ccc(NC(=O)NCC)cc2)cc1` gave an inhibition of 7% (Transcription antitermination protein NusB, with NusE (nusB, Bacillus subtilis, UniProt P54520); protein-protein interaction, inhibitor, competitive ELISA; 25 µM, 15 min preincubation, 37 °C, with: 200 nM GST-NusE).

Repeated from above:
The inhibition of `O=C1N[C@@H](CO)C[C@H](O)c2ccccc21` (relative stereo) is reported as 0% (Protein mono-ADP-ribosyltransferase PARP3 (PARP3, Homo sapiens, UniProt Q9Y6F1); enzyme activity, inhibitor; 10 µM).
